Results pooled from the literature.
A part holds a random share of what one study measured. Substitutions count along the parent as printed.
Chain of UniProt Q9XFM0 (whole entry, looked up): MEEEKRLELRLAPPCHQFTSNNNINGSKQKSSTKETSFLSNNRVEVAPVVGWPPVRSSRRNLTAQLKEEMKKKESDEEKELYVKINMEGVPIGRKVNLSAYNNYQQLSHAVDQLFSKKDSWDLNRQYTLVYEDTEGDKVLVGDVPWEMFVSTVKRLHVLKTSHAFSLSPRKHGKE
Chain of UniProt Q9ZTX8 (whole entry, looked up): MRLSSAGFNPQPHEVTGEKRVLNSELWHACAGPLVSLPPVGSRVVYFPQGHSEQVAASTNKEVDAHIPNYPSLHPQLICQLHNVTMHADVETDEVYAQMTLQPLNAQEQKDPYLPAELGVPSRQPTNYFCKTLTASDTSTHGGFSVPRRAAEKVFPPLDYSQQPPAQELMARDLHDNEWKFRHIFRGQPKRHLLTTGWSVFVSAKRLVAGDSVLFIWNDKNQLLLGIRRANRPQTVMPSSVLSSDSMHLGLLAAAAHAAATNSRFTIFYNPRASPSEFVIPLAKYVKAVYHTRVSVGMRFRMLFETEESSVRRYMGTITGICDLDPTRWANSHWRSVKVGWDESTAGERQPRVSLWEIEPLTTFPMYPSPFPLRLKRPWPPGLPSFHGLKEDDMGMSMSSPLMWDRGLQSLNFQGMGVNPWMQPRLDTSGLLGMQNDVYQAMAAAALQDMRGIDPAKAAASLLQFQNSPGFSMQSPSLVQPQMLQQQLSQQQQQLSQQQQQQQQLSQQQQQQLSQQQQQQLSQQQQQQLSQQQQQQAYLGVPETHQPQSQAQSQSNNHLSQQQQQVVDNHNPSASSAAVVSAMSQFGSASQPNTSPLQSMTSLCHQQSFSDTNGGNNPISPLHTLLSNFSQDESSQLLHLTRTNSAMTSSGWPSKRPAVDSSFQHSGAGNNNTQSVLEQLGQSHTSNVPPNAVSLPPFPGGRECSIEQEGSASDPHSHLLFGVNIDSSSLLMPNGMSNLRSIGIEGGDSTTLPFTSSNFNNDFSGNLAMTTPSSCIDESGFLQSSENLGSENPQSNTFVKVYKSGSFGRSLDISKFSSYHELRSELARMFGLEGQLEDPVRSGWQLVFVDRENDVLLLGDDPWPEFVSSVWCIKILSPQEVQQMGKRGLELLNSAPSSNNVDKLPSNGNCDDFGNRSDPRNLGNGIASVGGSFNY
Chain of UniProt Q93WC4 (whole entry, looked up): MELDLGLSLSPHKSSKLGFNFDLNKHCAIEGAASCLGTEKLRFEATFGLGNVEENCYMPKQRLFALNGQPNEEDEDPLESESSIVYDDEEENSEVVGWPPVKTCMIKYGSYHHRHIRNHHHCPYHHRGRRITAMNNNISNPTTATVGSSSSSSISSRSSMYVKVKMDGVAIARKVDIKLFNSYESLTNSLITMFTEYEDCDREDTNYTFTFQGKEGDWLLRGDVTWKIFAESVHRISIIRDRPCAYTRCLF
Chain of UniProt P93024 (whole entry, looked up): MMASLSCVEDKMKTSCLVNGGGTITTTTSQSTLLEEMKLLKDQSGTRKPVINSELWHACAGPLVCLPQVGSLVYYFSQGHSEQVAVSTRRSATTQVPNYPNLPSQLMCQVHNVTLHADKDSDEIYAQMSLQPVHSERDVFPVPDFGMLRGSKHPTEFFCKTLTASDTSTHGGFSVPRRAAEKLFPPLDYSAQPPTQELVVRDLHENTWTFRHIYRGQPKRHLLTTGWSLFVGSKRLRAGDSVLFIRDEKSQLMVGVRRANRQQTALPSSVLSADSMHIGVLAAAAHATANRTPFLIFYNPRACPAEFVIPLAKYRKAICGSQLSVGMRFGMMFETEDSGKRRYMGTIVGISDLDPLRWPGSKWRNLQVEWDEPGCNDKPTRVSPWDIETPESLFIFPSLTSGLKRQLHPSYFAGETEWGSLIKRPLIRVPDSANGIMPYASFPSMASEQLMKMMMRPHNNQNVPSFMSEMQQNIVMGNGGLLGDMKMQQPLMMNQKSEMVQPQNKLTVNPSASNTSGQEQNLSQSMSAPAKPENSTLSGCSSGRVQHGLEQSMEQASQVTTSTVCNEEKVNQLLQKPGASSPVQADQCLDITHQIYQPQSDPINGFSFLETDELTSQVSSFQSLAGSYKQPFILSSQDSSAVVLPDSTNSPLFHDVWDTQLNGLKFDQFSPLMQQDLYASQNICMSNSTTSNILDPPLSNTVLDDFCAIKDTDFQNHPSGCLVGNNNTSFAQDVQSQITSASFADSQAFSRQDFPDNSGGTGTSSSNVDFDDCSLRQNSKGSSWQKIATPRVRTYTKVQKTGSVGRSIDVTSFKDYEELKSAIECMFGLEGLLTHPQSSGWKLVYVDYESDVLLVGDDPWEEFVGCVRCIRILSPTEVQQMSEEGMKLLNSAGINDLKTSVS
Chain of UniProt Q9ZPY6 (whole entry, looked up): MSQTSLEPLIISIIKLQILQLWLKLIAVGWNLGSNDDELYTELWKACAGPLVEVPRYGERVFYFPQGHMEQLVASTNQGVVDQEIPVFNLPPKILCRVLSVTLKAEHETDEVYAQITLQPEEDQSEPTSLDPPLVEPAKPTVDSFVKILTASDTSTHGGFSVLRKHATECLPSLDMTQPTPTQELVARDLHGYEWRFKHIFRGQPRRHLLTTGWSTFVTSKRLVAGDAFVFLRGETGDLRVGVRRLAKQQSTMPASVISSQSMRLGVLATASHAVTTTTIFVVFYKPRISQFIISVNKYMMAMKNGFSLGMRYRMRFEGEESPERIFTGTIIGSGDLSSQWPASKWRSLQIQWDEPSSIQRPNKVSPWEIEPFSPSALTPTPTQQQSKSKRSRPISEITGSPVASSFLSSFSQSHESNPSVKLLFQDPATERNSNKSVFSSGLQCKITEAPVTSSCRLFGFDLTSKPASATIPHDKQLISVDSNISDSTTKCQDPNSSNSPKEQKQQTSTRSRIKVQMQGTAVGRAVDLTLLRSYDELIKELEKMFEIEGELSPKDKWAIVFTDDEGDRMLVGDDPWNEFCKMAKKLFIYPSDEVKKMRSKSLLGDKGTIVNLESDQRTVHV

Block 1 — target: CCNB2, cyclin fold, Cln2 fusion (human); method: yeast growth competition, sequencing; sample: yeast; notes: weak parent motif; baseline: not given; reading: higher = stronger binding
Parent: RBL2 docking peptide (human); STTRRRLFVENDS
Substitution	normalised enrichment score
D12R	0.898
R4C	-0.0153
S13Q	-0.0273
T3S	0.303
V9Q	0.221
T3D	0.154
S13K	0.572
F8D	-0.146
R4I	0.26
V9W	0.936
R4P	-0.509
S1C	0.614
R5H	0.434
R5S	0.432
N11F	0.987
S1A	0.631
R4Y	0.322
S1D	0.785
T3Y	0.703
V9K	0.61
N11H	0.268
D12N	0.127
V9L	-0.122
F8V	0.147

Block 2 — method: universal PBM; molecule type: double-stranded DNA, one strand shown; sample: in vitro; tested at: 600 nM; reading: higher = stronger binding
Target: Sal-like protein 4, full length isoform A (SALL4, Homo sapiens, UniProt Q9UJQ4, residues 1-1053)
Chain of UniProt Q9UJQ4 (whole entry, looked up): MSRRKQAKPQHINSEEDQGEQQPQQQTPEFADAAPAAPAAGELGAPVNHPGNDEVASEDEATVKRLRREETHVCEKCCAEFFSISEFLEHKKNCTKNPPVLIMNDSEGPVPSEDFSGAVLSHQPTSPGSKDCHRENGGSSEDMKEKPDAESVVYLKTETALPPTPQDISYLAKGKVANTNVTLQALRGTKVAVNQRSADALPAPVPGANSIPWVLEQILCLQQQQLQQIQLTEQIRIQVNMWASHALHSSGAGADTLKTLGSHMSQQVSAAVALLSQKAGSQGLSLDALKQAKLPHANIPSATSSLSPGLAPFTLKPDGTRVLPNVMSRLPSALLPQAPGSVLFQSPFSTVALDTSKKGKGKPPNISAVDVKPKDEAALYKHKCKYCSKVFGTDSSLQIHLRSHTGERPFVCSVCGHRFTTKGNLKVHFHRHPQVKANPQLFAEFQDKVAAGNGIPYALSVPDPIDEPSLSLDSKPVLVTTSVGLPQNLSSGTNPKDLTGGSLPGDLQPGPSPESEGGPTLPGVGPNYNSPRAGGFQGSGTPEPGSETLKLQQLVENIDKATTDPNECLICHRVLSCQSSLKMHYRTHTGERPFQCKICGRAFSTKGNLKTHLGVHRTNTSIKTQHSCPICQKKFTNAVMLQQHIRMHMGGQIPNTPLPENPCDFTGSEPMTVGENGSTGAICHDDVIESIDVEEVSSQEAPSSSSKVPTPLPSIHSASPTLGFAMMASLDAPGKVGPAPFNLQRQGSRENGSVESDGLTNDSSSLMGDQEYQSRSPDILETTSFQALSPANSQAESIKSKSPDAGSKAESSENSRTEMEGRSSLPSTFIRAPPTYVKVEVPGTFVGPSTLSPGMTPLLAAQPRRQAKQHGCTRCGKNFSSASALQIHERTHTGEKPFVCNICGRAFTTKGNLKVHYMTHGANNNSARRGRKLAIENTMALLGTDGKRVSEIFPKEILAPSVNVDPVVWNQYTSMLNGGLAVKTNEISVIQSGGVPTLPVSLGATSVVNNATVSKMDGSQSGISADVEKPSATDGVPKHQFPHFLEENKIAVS
Notes: 8-mer, flanks averaged, mean of replicates
Oligonucleotide	E-score
GCTTGCAC	-0.18
GCAGGCCA	-0.321
ACGGCATC	-0.151
AGAAAGCA	0.0824
CCCTGGGA	-0.343
AATCCTTG	0.16
GAACATTC	0.109
GCCGCTTA	-0.163
TCCGAACA	-0.0356
CCTTGACA	-0.0793
CCCTCCGC	-0.214
GGTCTCAA	-0.124
GGTCCCAA	-0.215
AGGGGAAA	-0.016
GACGAGCC	-0.334
CTGAGTTA	0.021
TACCGAGA	-0.0484
TAGAGACA	0.173
AGCGCTGA	-0.183
CTTAACGC	-0.0979
CGAAGCAA	0.157
AATAGAGC	0.104
GGAAATCA	0.134
CACTCCGG	-0.169
AACCGTCG	-0.171

Block 3 — Sequence: B1 (IAA20); method: two-hybrid; notes: weak activation fusion; baseline: out of 4 tests; reading: higher = firmer interaction
B1: IAA20 (Arabidopsis thaliana, UniProt O24410); chain MGRGRSSSSSSIESSSKSNPFGASSSTRNLSTDLRLGLSFGTSSGTQYFNGGYGYSVAAPAVEDAEYVAAVEEEEENECNSVGSFYVKVNMEGVPIGRKIDLMSLNGYRDLIRTLDFMFNASILWAEEEDMCNEKSHVLTYADKEGDWMMVGDVPWEMFLSTVRRLKISRANYHY
partner	positive tests
IAA29 (Arabidopsis thaliana, UniProt Q93WC4)	1
ARF11 500-622 (Arabidopsis thaliana, UniProt Q9ZPY6)	0
ARF18 482-602 (Arabidopsis thaliana, UniProt Q9C5W9)	0
ARF6 790-935 (Arabidopsis thaliana, UniProt Q9ZTX8)	3
IAA28 (Arabidopsis thaliana, UniProt Q9XFM0)	2
ARF5 788-902 (Arabidopsis thaliana, UniProt P93024)	2

Block 4 — method: DHFR PCA, deep sequencing; sample: yeast; together with: (+)-ABA 2500 µM; baseline: wild-type fitted maximum; reading: higher = stronger binding
Target: ABI1, truncated, D143A, DHFR fusion (Arabidopsis thaliana)
Notes: methotrexate growth selection, single substitutions
Parent: PYL1, truncated, DHFR fusion (Arabidopsis thaliana); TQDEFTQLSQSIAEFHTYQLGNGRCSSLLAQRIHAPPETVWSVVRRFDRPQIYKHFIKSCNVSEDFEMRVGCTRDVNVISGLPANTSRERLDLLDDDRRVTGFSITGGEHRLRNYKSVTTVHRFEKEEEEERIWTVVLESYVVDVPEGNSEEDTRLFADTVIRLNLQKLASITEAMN
Substitution	relative binding score
T119C	106%
L169Q	-8.43%
R88G	81%
Q2F	95.9%
E129F	102%
P37A	97.4%
D97V	101%
E128Q	108%
K168A	95.3%
E38M	85.9%
Q167F	91%

Block 5 — method: RNA Bind-n-Seq; molecule type: RNA; sample: in vitro; tested at: not given; baseline: input RNA pool; reading: higher = stronger binding
Target: RING finger protein unkempt homolog, zinc fingers 1-6, GST-SBP tag (UNK, Homo sapiens, UniProt Q9C0B0, residues 30-357)
Chain of UniProt Q9C0B0 (30-357, looked up): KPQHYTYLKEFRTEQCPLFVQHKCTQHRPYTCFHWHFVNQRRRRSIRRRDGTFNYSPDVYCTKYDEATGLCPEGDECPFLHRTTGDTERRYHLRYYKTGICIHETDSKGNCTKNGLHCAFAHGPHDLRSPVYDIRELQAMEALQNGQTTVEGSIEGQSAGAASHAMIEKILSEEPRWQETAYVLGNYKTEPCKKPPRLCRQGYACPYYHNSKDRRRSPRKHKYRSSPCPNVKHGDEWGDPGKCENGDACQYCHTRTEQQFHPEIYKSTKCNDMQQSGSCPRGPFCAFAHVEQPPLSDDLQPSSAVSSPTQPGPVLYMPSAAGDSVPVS
Notes: RNA with constant flanks, human and mouse sites, ends assumed
Oligonucleotide	bound/input enrichment
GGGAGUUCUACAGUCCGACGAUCGUUCACCAGAUUGAUGCAGUGCUGUUGUCUCACCCUGAUCCUCUCCACCUUGGUGCCCUCCCGUAUGCUGUCGGAAAGUUGGGUCUGAACUGUGCUAUCUAUGCAACCAUUCCUGUUUAUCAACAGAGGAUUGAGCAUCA	0.226 ratio
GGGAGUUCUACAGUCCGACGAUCAGGCACUGGGAGGCUGUUUCAGGAAAGUGAGACUCAAGAGGAAGACAGAAAAGGUUGUAACGUAGAGGAAGUGAGACUGGUGAAUUGGUUUGAUUUUUUUCACAUCUAGAUGGCUGUCAUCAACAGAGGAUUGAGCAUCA	0.553 ratio
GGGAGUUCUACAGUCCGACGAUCUUUGGUGCACAAAAUCCUUCUGUGGGCAAAACUUUGUUUUUGUUUUGCACAGUAAGAAACAAUAGGCAAGCGUUAUGUUUUUGGUAAGUUAACUAUGAAAGCUUUCUUAUUUUUAUUAUUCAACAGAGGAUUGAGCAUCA	0.705 ratio
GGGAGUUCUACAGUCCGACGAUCUCCCCACCGGCAAUGGAGCGGUUGACGUUGCCUCUCGGCGGCGCGGCGGCGGUGGACGAGUACCUGGAGUACCGGAGGUAUAAACAACAUAAAACUGACUUGGAAGCGAUUCCUCAGCAGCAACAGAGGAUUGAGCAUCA	0.243 ratio
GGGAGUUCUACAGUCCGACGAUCGUCAUUCAUACCAUUCACACCUAAAGACUGAAUUUUAUCUGUUUUGAAAACGAACUUCUCUAGCUACACAGAAGUAACAAAAUAUGUUAGUCAGUUUUGUAUUUAGAAAUGUAUUGGUAGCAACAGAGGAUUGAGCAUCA	2.12 ratio
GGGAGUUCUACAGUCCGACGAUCUAAAAUCUUUGUACUUUUUACAUGAUUGCUGUAUGUAUAUUUUGUUUUAAAUCUAAUAAAAUUAGGGACAGAGAGUGACUCGCUGGGGUUCUUGGGGUCCUUGAGAAUUAAAUUUGUCAACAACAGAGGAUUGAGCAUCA	0.323 ratio
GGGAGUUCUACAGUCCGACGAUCGUCCCCACAAAAGCCAGGUUCCCUGCAUUUGAACUCUGAAAGGAUAGCAUGCCACCUGCAACUCACUGCAUGACCCUUUCUGUAUAUUCAAACCCAAGCUAAGUGCUUCCGUUGCUUUCCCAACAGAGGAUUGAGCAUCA	0.322 ratio
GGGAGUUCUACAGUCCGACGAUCGUGAAAAAUACAGAGCUGGCUGUCUUCCAUGAUGAAACAGAAAUACAAAACCAAACUGACUUACUGAGUCUUAGUGGAAAAACACUUUGUGUGACUGCAGGAUCGGCUCCCUCUCUGAUCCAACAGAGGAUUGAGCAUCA	0.136 ratio

Mixed results
Molecule	target	assay	test system	setting	how to read	measurement	value
PhoQ, residues 284 288 289 292 302 303 SCCLKL	PhoP, residues 12 14 15 18 19 HEGLL (Escherichia coli, UniProt P23836)	Sort-seq, measured: YFP reporter	E. coli	PhoQ-PhoP variant library, together with: 10 µM Mg2+	baseline: high Mg2+ state, higher = stronger signaling	fold induction	7.07

For quick reference, copied from above (block 2):
Oligonucleotide	E-score
CACTCCGG	-0.169
AATAGAGC	0.104
CCCTCCGC	-0.214
TAGAGACA	0.173
AATCCTTG	0.16
AGCGCTGA	-0.183
GGAAATCA	0.134
GGTCCCAA	-0.215
GCCGCTTA	-0.163
TACCGAGA	-0.0484
CCTTGACA	-0.0793
CGAAGCAA	0.157
AGGGGAAA	-0.016
